# Published values of several laboratories.
# Protocols differ between the studies behind these lines. Several values in a cell are separate wells, animals, samples, runs or records.
# Partner: itself
# B1: Pah 1-431 (Rattus norvegicus, UniProt P04176); sequence looked up; chain MAAVVLENGVLSRKLSDFGQETSYIEDNSNQNGAISLIFSLKEEVGALAKVLRLFEENDINLTHIESRPSRLNKDEYEFFTYLDKRTKPVLGSIIKSLRNDIGATVHELSRDKEKNTVPWFPRTIQELDRFANQILSYGAELDADHPGFKDPVYRARRKQFADIAYNYRHGQPIPRVEYTEEEKQTWGTVFRTLKALYKTHACYEHNHIFPLLEKYCGFREDNIPQLEDVSQFLQTCTGFRLRPVAGLLSSRDFLGGLAFRVFHCTQYIRHGSKPMYTPEPDICHELLGHVPLFSDRSFAQFSQEIGLASLGAPDEYIEKLATIYWFTVEFGLCKEGDSIKAYGAGLLSSFGELQYCLSDKPKLLPLELEKTACQEYSVTEFQPLYYVAESFSDAKEKVRTFAATIPRPFSVRYDPYTQRVEVLDNTQQLK
# B2: PALB2 1-400 (Homo sapiens, UniProt Q86YC2); sequence looked up; chain MDEPPGKPLSCEEKEKLKEKLAFLKREYSKTLARLQRAQRAEKIKHSIKKTVEEQDCLSQQDLSPQLKHSEPKNKICVYDKLHIKTHLDEETGEKTSITLDVGPESFNPGDGPGGLPIQRTDDTQEHFPHRVSDPSGEQKQKLPSRRKKQQKRTFISQERDCVFGTDSLRLSGKRLKEQEEISSKNPARSPVTEIRTHLLSLKSELPDSPEPVTEINEDSVLIPPTAQPEKGVDTFLRRPNFTRATTVPLQTLSDSGSSQHLEHIPPKGSSELTTHDLKNIRFTSPVSLEAQGKKMTVSTDNLLVNKAISKSGQLPTSSNLEANISCSLNELTYNNLPANENQNLKEQNQTEKSLKSPSDTLDGRNENLQESEILSQPKSLSLEATSPLSAEKHSCTVPE
# B3: TBK1 D33A/D135N (Homo sapiens, UniProt Q9UHD2); sequence looked up; chain MQSTSNHLWLLSDILGQGATANVFRGRHKKTGALFAIKVFNNISFLRPVDVQMREFEVLKKLNHKNIVKLFAIEEETTTRHKVLIMEFCPCGSLYTVLEEPSNAYGLPESEFLIVLRDVVGGMNHLRENGIVHRNIKPGNIMRVIGEDGQSVYKLTDFGAARELEDDEQFVSLYGTEEYLHPDMYERAVLRKDHQKKYGATVDLWSIGVTFYHAATGSLPFRPFEGPRRNKEVMYKIITGKPSGAISGVQKAENGPIDWSGDMPVSCSLSRGLQVLLTPVLANILEADQEKCWGFDQFFAETSDILHRMVIHVFSLQQMTAHKIYIHSYNTATIFHELVYKQTKIISSNQELIYEGRRLVLEPGRLAQHFPKTTEENPIFVVSREPLNTIGLIYEKISLPKVHPRYDLDGDASMAKAITGVVCYACRIASTLLLYQELMRKGIRWLIELIKDDYNETVHKKTEVVITLDFCIRNIEKTVKVYEKLMKINLEAAELGEISDIHTKLLRLSSSQGTIETSLQDIDSRLSPGGSLADAWAHQEGTHPKDRNVEKLQVLLNCMTEIYYQFKKDKAERRLAYNEEQIHKFDKQKLYYHATKAMTHFTDECVKKYEAFLNKSEEWIRKMLHLRKQLLSLTNQCFDIEEEVSKYQEYTNELQETLPQKMFTASSGIKHTMTPIYPSSNTLVEMTLGMKKLKEEMEGVVKELAENNHILERFGSLTMDGGLRNVDCL
# B4: FabZ 3-149 (Kuenenia stuttgartiensis, UniProt Q1Q2X5); chain LFEEIRSLLPQKYPFIFIDRAIEFEESKRIVCVKNISGNEPVFVGHFPDFAIMPGVLIIEAMAQASIILFRKSLPSRNDEDAVFLLASVNNARFTKPVVPGDQLTIEVIVEKIVSRGAIVQSVVKVQEKVVAKAALTFGIVEKSSLV
# B5: clcA 1-465 C85A/H234C/I197A (Escherichia coli, UniProt P37019); chain MKTDTPSLETPQAARLRRRQLIRQLLERDKTPLAILFMAAVVGTLVGLAAVAFDKGVAWLQNQRMGALVHTADNYPLLLTVAFLASAVLAMFGYFLVRKYAPEAGGSGIPEIEGALEDQRPVRWWRVLPVKFFGGLGTLGGGMVLGREGPTVQIGGNIGRMVLDIFRLKGDEARHTLLATGAAAGLAAAFNAPLAGALFIIEEMRPQFRYTLISIKAVFIGVIMSTIMYRIFNCEVALIDVGKLSDAPLNTLWLYLILGIIFGIFGPIFNKWVLGMQDLLHRVHGGNITKWVLMGGAIGGLCGLLGFVAPATSGGGFNLIPIATAGNFSMGMLVFIFVARVITTLLCFSSGAPGGIFAPMLALGTVLGTAFGMVAVELFPQYHLEAGTFAIAGMGALLAASIRAPLTGIILVLEMTDNYQLILPMIITGLGATLLAQFTGGKPLYSAILARTLAKQEAEQLARSK
# B6: HPCD (UniProt Q45135); sequence looked up; chain MSNEIPKPVAPAPDILRCAYAELVVTDLAKSRNFYVDVLGLHVSYEDENQIYLRSFEEFIHHNLVLTKGPVAALKAMAFRVRTPEDVDKAEAYYQELGCRTERRKDGFVKGIGDALRVEDPLGFPYEFFFETTHVERLHMRYDLYSAGELVRLDHFNQVTPDVPRGRKYLEDLGFRVTEDIQDDEGTTYAAWMHRKGTVHDTALTGGNGPRLHHVAFSTHEKHNIIQICDKMGALRISDRIERGPGRHGVSNAFYLYILDPDNHRIEIYTQDYYTGDPDNPTITWNVHDNQRRDWWGNPVVPSWYTEASKVLDLDGNVQEIIERTDDSELEVTIGADGFSFTRAGDEDGSYHGQASKGFKLGNQL
# B7: spo0J K255A (Bacillus subtilis, UniProt P26497); chain MAKGLGKGINALFNQVDLSEETVEEIKIADLRPNPYQPRKHFDDEALAELKESVLQHGILQPLIVRKSLKGYDIVAGERRFRAAKLAGLDTVPAIVRELSEALMREIALLENLQREDLSPLEEAQAYDSLLKHLDLTQEQLAKRLGKSRPHIANHLRLLTLPENIQQLIAEGTLSMGHGRTLLGLKNKNKLEPLVQKVIAEQLNVRQLEQLIQQLNQNVPRETKKKEPVKDAVLKERESYLQNYFGTTVNIKRQAKKGKIEIEFFSNEDLDRILELLSERES
# B8: RBKS K54N (Homo sapiens, UniProt Q9H477); sequence looked up; chain MAASGEPQRQWQEEVAAVVVVGSCMTDLVSLTSRLPKTGETIHGHKFFIGFGGNGANQCVQAARLGAMTSMVCKVGKDSFGNDYIENLKQNDISTEFTYQTKDAATGTASIIVNNEGQNIIVIVAGANLLLNTEDLRAAANVISRAKVMVCQLEITPATSLEALTMARRSGVKTLFNPAPAIADLDPQFYTLSDVFCCNESEAEILTGLTVGSAADAGEAALVLLKRGCQVVIITLGAEGCVVLSQTEPEPKHIPTEKVKAVDTTGAGDSFVGALAFYLAYYPNLSLEDMLNRSNFIAAVSVQAAGTQSSYPYKKDLPLTLF
# B9: CLCN3 1-818 (Homo sapiens, UniProt P51790); chain MESEQLFHRGYYRNSYNSITSASSDEELLDGAGVIMDFQTSEDDNLLDGDTAVGTHYTMTNGGSINSSTHLLDLLDEPIPGVGTYDDFHTIDWVREKCKDRERHRRINSKKKESAWEMTKSLYDAWSGWLVVTLTGLASGALAGLIDIAADWMTDLKEGICLSALWYNHEQCCWGSNETTFEERDKCPQWKTWAELIIGQAEGPGSYIMNYIMYIFWALSFAFLAVSLVKVFAPYACGSGIPEIKTILSGFIIRGYLGKWTLMIKTITLVLAVASGLSLGKEGPLVHVACCCGNIFSYLFPKYSTNEAKKREVLSAASAAGVSVAFGAPIGGVLFSLEEVSYYFPLKTLWRSFFAALVAAFVLRSINPFGNSRLVLFYVEYHTPWYLFELFPFILLGVFGGLWGAFFIRANIAWCRRRKSTKFGKYPVLEVIIVAAITAVIAFPNPYTRLNTSELIKELFTDCGPLESSSLCDYRNDMNASKIVDDIPDRPAGIGVYSAIWQLCLALIFKIIMTVFTFGIKVPSGLFIPSMAIGAIAGRIVGIAVEQLAYYHHDWFIFKEWCEVGADCITPGLYAMVGAAACLGGVTRMTVSLVVIVFELTGGLEYIVPLMAAVMTSKWVGDAFGREGIYEAHIRLNGYPFLDAKEEFTHTTLAADVMRPRRNDPPLAVLTQDNMTVDDIENMINETSYNGFPVIMSKESQRLVGFALRRDLTIAIESARKKQEGIVGSSRVCFAQHTPSLPAESPRPLKLRSILDMSPFTVTDHTPMEIVVDIFRKLGLRQCLVTHNGRLLGIITKKDILRHMAQTANQDPASIMFN
# B10: ACAT1 35-427 C126A (Homo sapiens, UniProt P24752); chain SKPTLKEVVIVSATRTPIGSFLGSLSLLPATKLGSIAIQGAIEKAGIPKEEVKEAYMGNVLQGGEGQAPTRQAVLGAGLPISTPCTTINKVAASGMKAIMMASQSLMCGHQDVMVAGGMESMSNVPYVMNRGSTPYGGVKLEDLIVKDGLTDVYNKIHMGSCAENTAKKLNIARNEQDAYAINSYTRSKAAWEAGKFGNEVIPVTVTVKGQPDVVVKEDEEYKRVDFSKVPKLKTVFQKENGTVTAANASTLNDGAAALVLMTADAAKRLNVTPLARIVAFADAAVEPIDFPIAPVYAASMVLKDVGLKKEDIAMWEVNEAFSLVVLANIKMLEIDPQKVNINGGAVSLGHPIGMSGARIVGHLTHALKQGEYGLASICNGGGGASAMLIQKL
# B11: APOE mature (Cavia porcellus); chain ENLYFQGDPDVEPEVEVREPAVWQSGQPWELALSRFWDYLRWVQTLSDQVQEELLSNQVTQELTLLIEDTMKEVKDYKAELEKELGPVAEDTKARLAKELQAAQARLGADMEEVRNRLSQYRSEVQAMLGQSSEELRARLTSHLRKMRKRLQRDIDELQKRMAVYKAGAQEGAERGVSAIRERLGSLIEQGRLQALTSQPLQERAQAWGEQMRGRLEKVGSQARDRLEEVREQMEEVRVKVEEQAEAFQARLKSWFEPMMEDMRRQWAELIQKVQVAVGASTSAPSQEP
# B12: aqpZ 1-231 F13A (Escherichia coli, UniProt P60844); chain MFRKLAAECFGTAWLVFGGCGSAVLAAGFPELGIGFAGVALAFGLTVLTMAFAVGHISGGHFNPAVTIGLWAGGRFPAKEVVGYVIAQVVGGIVAAALLYLIASGKTGFDAAASGFASNGYGEHSPGGYSMLSALVVELVLSAGFLLVIHGATDKFAPAGFAPIAIGLALTLIHLISIPVTNTSVNPARSTAVAIFQGGWALEQLWFFWVVPIVGGIIGGLIYRTLLEKRD
# B13: xseA H238A (Escherichia coli, UniProt P04994); sequence looked up; chain MLPSQSPAIFTVSRLNQTVRLLLEHEMGQVWISGEISNFTQPASGHWYFTLKDDTAQVRCAMFRNSNRRVTFRPQHGQQVLVRANITLYEPRGDYQIIVESMQPAGEGLLQQKYEQLKAKLQAEGLFDQQYKKPLPSPAHCVGVITSKTGAALHDILHVLKRRDPSLPVIIYPAAVQGDDAPGQIVRAIELANQRNECDVLIVGRGGGSLEDLWSFNDERVARAIFTSRIPVVSAVGAETDVTIADFVADLRAPTPSAAAEVVSRNQQELLRQVQSTRQRLEMAMDYYLANRTRRFTQIHHRLQQQHPQLRLARQQTMLERLQKRMSFALENQLKRTGQQQQRLTQRLNQQNPQPKIHRAQTRIQQLEYRLAETLRAQLSATRERFGNAVTHLEAVSPLSTLARGYSVTTATDGNVLKKVKQVKAGEMLTTRLEDGWIESEVKNIQPVKKSRKKVH
# B14: ccmK2 1-102 H76N (Synechococcus elongatus, UniProt Q03511); chain MPIAVGMIETLGFPAVVEAADAMVKAARVTLVGYEKIGSGRVTVIVRGDVSEVQASVSAGLDSAKRVAGGEVLSHNIIARPHENLEYVLPIRYTEAVEQFRM
# B15: RPRD1B (Homo sapiens, UniProt Q9NQG5); chain MSSFSESALEKKLSELSNSQQSVQTLSLWLIHHRKHAGPIVSVWHRELRKAKSNRKLTFLYLANDVIQNSKRKGPEFTREFESVLVDAFSHVAREADEGCKKPLERLLNIWQERSVYGGEFIQQLKLSMEDSKSPPPKATEEKKSLKRTFQQIQEEEDDDYPGSYSPQDPSAGPLLTEELIKALQDLENAASGDATVRQKIASLPQEVQDVSLLEKITDKEAAERLSKTVDEACLLLAEYNGRLAAELEDRRQLARMLVEYTQNQKDVLSEKEKKLEEYKQKLARVTQVRKELKSHIQSLPDLSLLPNVTGGLAPLPSAGDLFSTD
Substance,assay,setting,subunits per oligomer
B1 (Pah 1-431),native gel,,2
B2 (PALB2 1-400),mass photometry,,2
B3 (TBK1 D33A/D135N),SEC-MALS,,2
B4 (FabZ 3-149),X-ray crystallography,,6
B5 (clcA 1-465 C85A/H234C/I197A),SEC,,2
B6 (HPCD),crystal structure,,4
B7 (spo0J K255A),SEC-MALS,,2
B8 (RBKS K54N),mass photometry,,2
B9 (CLCN3 1-818),cryo-EM,C2 symmetry,2
B10 (ACAT1 35-427 C126A),native gel,C126A mutant,4
B11 (APOE mature),cross-linking,,2 and 4
B12 (aqpZ 1-231 F13A),native MS,,4
B13 (xseA H238A),cryo-EM,,4
B14 (ccmK2 1-102 H76N),SEC,,6
B15 (RPRD1B),AUC,4 °C,2
"FER kinase domain , unphosphorylated (Arabidopsis thaliana) (sequence not shown)",AUC,unphosphorylated,2

# Repeated from above:
Substance,assay,setting,subunits per oligomer
B1 (Pah 1-431),native gel,,2
B7 (spo0J K255A),SEC-MALS,,2
